Results from different studies.
Each line is one published result; not all experiments were run side by side. Values joined by “and” are separate records of one study, mostly repeats; a detail may differ. ± marks the error that the study gave.

`C[C@H]1O[C@@H](O[C@H]2CC[C@@]3(C)[C@@H](CC[C@]4(C)[C@@H]3C=C[C@]35OC[C@@]6(CCC(C)(C)C[C@H]63)[C@@H](O)C[C@]54C)[C@]2(C)CO)[C@H](O)[C@@H](O[C@@H]2O[C@H](CO)[C@@H](O)[C@H](O)[C@H]2O)[C@H]1O` has a plasma concentration of 0 ng/mL (UHPLC-MS/MS; mouse, plasma; oral, 50 mg/kg, 24 h, pooled samples).
With `Cc1c(C(=O)O)ccc2c3n(nc12)[C@@H]1[C@H](C3)N(CC2CC2)[C@@]2(C(=O)Nc3cc(Cl)ccc32)[C@H]1c1cccc(Cl)c1F` the plasma concentration was 0.964 µM (female BALB/c nude mouse, SJSA-1 xenograft, plasma; oral, 1 mg/kg twice daily, 9 h).
For `O=C1CCC(N2Cc3cc(CO)c(F)cc3C2=O)C(=O)N1` (stereo not shown), the plasma concentration was 26.8 ± 20.6 ng/mL (CD-1 mouse, male; oral, 10 mg/kg parent drug, 2 h).
With `CSc1cc(Oc2ccnc3[nH]c(=O)cnc23)ccc1NC(=O)Nc1cc(C(C)(C)C)nn1-c1ccccc1` the plasma concentration was 7.07 µM and 6.73 µM and 6.16 µM and 4.99 µM and 6.17 µM (nude mouse, female, tumor; oral, 20 mg/kg, 1 h after last dose).
For `CC(C)c1cc(C(=O)NCCN)c2cnn(C(C)C)c2n1`, the plasma concentration was 1670 ng/mL and 2210 ng/mL and 2280 ng/mL (mouse BALB/c female, plasma; intraperitoneal, 50 mg/kg, 0.25 h).
With `O=[N+]([O-])c1ccc(-c2ccc(O)cc2)c2cccnc12` the plasma concentration was 3.31 ng/mL (ICR mouse, male; oral, 5 mg/kg, 2 h).
`CC(=O)NCc1cc2c(cc1F)C(=O)N(C1CCC(=O)NC1=O)C2` (stereo not shown) has a plasma concentration of 6.2 ± 2.5 ng/mL (CD-1 mouse, male; oral, 10 mg/kg parent drug, 2 h).
`C[C@@H](O)[C@H]1C(=O)N2C(C(=O)O)=C(S[C@@H]3CN[C@H](C(=O)N(C)C)C3)[C@H](C)[C@H]12` gave a plasma concentration of 2920 ng/mL (BALB/c mouse, male, plasma; intraperitoneal, dose not given, 8 h, with: combination treatment).
The plasma concentration of `Cc1cc([C@H]2C[C@H]3[C@@H](CF)SC(N)=N[C@@]3(c3ccc(F)cc3F)CO2)on1` is reported as 0.015 µM (male 129/SVE wild-type mouse, plasma; subcutaneous, 30 mg/kg, 9 h).
The plasma concentration of `CCn1c(=O)c(-c2cc(NC(=O)Nc3ccccc3)c(F)cc2Br)cc2cnc(NC)cc21` is reported as 568 ng/mL (mouse male, plasma; oral, 15 mg/kg, 1 h).
For `CC(C)(C)c1cc(NC(=O)Nc2ccc(Oc3ccnc4[nH]c(=O)cnc34)cc2F)n(-c2ccccc2)n1`, the plasma concentration was 15.1 µM and 4.08 µM and 5.8 µM and 2.52 µM and 7.65 µM (NSG mouse, female, tumor; oral, 20 mg/kg, 1 h after last dose).
The plasma concentration of `Cc1ncsc1-c1ccc(CNC(=O)[C@@H]2C[C@@H](O)CN2C(=O)[C@@H](NC(=O)CCCCCCCCCC(=O)N2CCN(CC[C@H](NC(=O)C3(N)CCN(c4ncnc5[nH]ccc45)CC3)c3ccc(Cl)cc3)CC2)C(C)(C)C)cc1` is reported as ~5 µM (mouse, plasma; intraperitoneal, 75 mg/kg once daily for 5 days, 2 h after last dose).
`CNC(=O)c1cc2c(Oc3ccc(NC(=O)C4(C(=O)Nc5ccc(F)cc5)CC4)cc3)ccnc2cc1OC` has a plasma concentration of 1.88 µM (LC-MS/MS; mouse, SNU-5 xenograft, plasma; oral, 3 mg/kg once daily for 14 days, 4 h).
For `c1csc(CNc2cc[nH]n2)c1`, the plasma concentration was 24.4 µM (mouse, CD-1, male, plasma; oral, 20 mg/kg as HCl salt, 0.5 h).
`CCN1CCN(Cc2ccc(NC(=O)c3ccc(C)c(NC(=O)c4cncc(-c5cccs5)c4)c3)cc2C(F)(F)F)CC1` gave a plasma concentration of 422 ng/mL and 461 ng/mL and 564 ng/mL (LC-MS/MS; C57BL/6 mouse, plasma; intraperitoneal, 20 mg/kg single dose, 1 h).
`Cc1coc([C@H]2C[C@H]3[C@@H](CF)SC(N)=N[C@@]3(c3ccc(F)cc3F)CO2)n1` has a plasma concentration of 14.9 µM (male 129/SVE mouse, plasma; subcutaneous, 80 mg/kg, 1 h).
For `c1ccc(-c2nc(N3CCC(c4ccccn4)C3)c3ccccc3n2)nc1` (stereo not shown), the plasma concentration was 3920 ng/mL (mouse, Balb/c female, plasma; oral, 12.5 mg/kg, 2 h, mean, with: aminobenzotriazole pretreatment).
`CC(=O)N(C)C1CCN(c2cc(F)cc(NC(=O)c3cc4c(F)ccc(C)c4[nH]3)c2)C1` (stereo not shown) gave a plasma concentration of 4.34 ng/mL (CD1 mouse, plasma; oral, 50 mg/kg, 7 h).
`Cc1cc([C@H]2C[C@H]3[C@@H](C)SC(N)=N[C@@]3(c3ccc(F)cc3F)CO2)on1` has a plasma concentration of 9.16 µM (male 129/SVE mouse, plasma; subcutaneous, 50 mg/kg, 1 h).
For `CCCCCN1C[C@H](O)[C@@H](O)[C@H](O)[C@@H]1CO`, the plasma concentration was 3840 ng/mL (LC-MS/MS; mouse Hexb-/- female, plasma; 300 mg/kg/day, arithmetic mean).
With `Cn1cc([C@H]2C[C@H]3CSC(N)=N[C@@]3(c3ccc(F)cc3F)CO2)cn1` the plasma concentration was 0.139 µM (male 129/SVE mouse, plasma; subcutaneous, 10 mg/kg, 13 h).
`CC(C)n1ncc2c(C(=O)NCC3(C)CNC3)cc(C3CC3)nc21` gave a plasma concentration of 2090 ng/mL and 2010 ng/mL and 2190 ng/mL and 1670 ng/mL (mouse BALB/c female, plasma; intraperitoneal, 50 mg/kg, 2 h).

Some of these lines once more:
The plasma concentration of `CCn1c(=O)c(-c2cc(NC(=O)Nc3ccccc3)c(F)cc2Br)cc2cnc(NC)cc21` is reported as 568 ng/mL (mouse male, plasma; oral, 15 mg/kg, 1 h).
For `CC(C)(C)c1cc(NC(=O)Nc2ccc(Oc3ccnc4[nH]c(=O)cnc34)cc2F)n(-c2ccccc2)n1`, the plasma concentration was 15.1 µM and 4.08 µM and 5.8 µM and 2.52 µM and 7.65 µM (NSG mouse, female, tumor; oral, 20 mg/kg, 1 h after last dose).
